Assay results pooled from the literature.
Compare with care: the assays were run in different laboratories. Numbers after ± are the reported error.

SMILES | assay | test system | setting | logP
CN1C(=O)[C@@H](Cc2ccc(O)c(I)c2)NC(=O)CNC(=O)[C@H](Cc2ccc3ccccc3c2)NC(=O)[C@H](CCCNC(=N)N)NC(=O)[C@H]1CCCNC(=O)c1ccc(CNC(=O)CN2CCN(CC(=O)O)CCN(CC(=O)O)CC2)cc1 [fluorine-18 labelled] |  | octanol/water |  | -1.4
CN[P+](c1ccccc1)(c1ccccc1)c1ccccc1 | HPLC | octanol/water | 100 µM | -1.28 ± 0.01
CC1=CC(c2cccc(C(F)(F)F)c2)=[O+][Ru-]([Cl])[O]1.Cc1c(C)c(C)c(C)c(C)c1C | shake-flask | octanol-water | 37 °C, Ru measured by ICP-MS, added: 100 mM NaCl | 1.2
Cn1ccn(N=Cc2ccccc2SSc2ccccc2C=Nn2ccn(C)c2=S)c1=S | stir-flask, HPLC | octanol/water |  | 3.3 ± 0.2
Brc1ccc2nc3c4ccc[n+]5c4c4c(ccc[n+]4[Ru-4]546([n+]5ccccc5-c5cccc[n+]54)[n+]4ccccc4-c4cccc[n+]46)c3nc2c1.[O-][Cl+3]([O-])([O-])[O-].[O-][Cl+3]([O-])([O-])[O-] |  | octanol/water | room temperature | -1.58
CC[P+](CC)(CC)[Au-][S][C@@H]1O[C@H](COC(C)=O)[C@@H](O[C@@H]2O[C@H](COC(C)=O)[C@H](OC(C)=O)[C@H](OC(C)=O)[C@H]2OC(C)=O)[C@H](OC(C)=O)[C@H]1OC(C)=O |  | n-octanol/water |  | 1.04
COCCOCCOCCOCCOCCOCCOCCOCCOCCOCCOCCOCCNC(=O)CCc1ccc(N(c2ccc(CCC(=O)NCCOCCOCCOCCOCCOCCOCCOCCOCCOCCOCCOCCOC)cc2)c2ccc(-c3c4c(c(-c5ccc(N(c6ccc(CCC(=O)NCCOCCOCCOCCOCCOCCOCCOCCOCCOCCOCCOCCOC)cc6)c6ccc(CCC(=O)NCCOCCOCCOCCOCCOCCOCCOCCOCCOCCOCCOCCOC)cc6)cc5)c5nsnc35)N=S=N4)cc2)cc1 | shake flask | n-octanol/water |  | -1.47
COc1cc(OC)cc(C2=C3C(C)=C(I)C(/C=C/c4c[nH]c5ccccc45)=[N+]3[B-](F)(F)n3c(/C=C/c4c[nH]c5ccccc45)c(I)c(C)c32)c1 |  | octanol/HEPES buffer | pH 7.4, room temperature | 1.16
N#Cc1ccc(/C=C/C=C/c2ccc3ncnc(Nc4ccccc4)c3c2)cc1 |  | octanol/water |  | 1.55
COc1cc(OC)cc(C2=C3C(C)=C(I)C(/C=C/c4cccs4)=[N+]3[B-](F)(F)n3c(/C=C/c4cccs4)c(I)c(C)c32)c1 |  | octanol/HEPES buffer | pH 7.4, room temperature | 1.01
C#CCN(C(=O)OCc1ccc(C(=O)N(C)C)cc1)[c-]1cccc1.[Fe+2].c1cc[cH-]c1 | RP-TLC | MOPS/acetonitrile | pH 7.4 | 3.96 ± 0.15
CC[P+](CC)(CC)[Au-][S]c1ccc(SCC(=O)N[C@H]2[C@H](OC(C)=O)O[C@H](COC(C)=O)[C@@H](OC(C)=O)[C@@H]2OC(C)=O)cc1 |  | n-octanol/water |  | -0.36
CC[P+](N=P(c1ccccc1)(c1ccccc1)c1ccccc1)(c1ccccc1)c1ccccc1 | HPLC | octanol/water | 100 µM | 0.51
O=C(OCc1ccc(B(O)O)cc1)N(Cc1cccc(CN2CCCCC2)c1)[c-]1cccc1.[Fe+2].c1cc[cH-]c1 | RP-TLC | MOPS/acetonitrile | pH 7.4 | 6.09 ± 0.03
CCOC(=O)c1[nH]c(C)c(/C=C/c2c(I)c(C)c3n2[B-](F)(F)[N+]2=C(C)C(I)=C(C)C2=C3c2cc(OC)cc(OC)c2)c1C |  | octanol/HEPES buffer | pH 7.4, room temperature | 1.1
CC1=C2[O][Ru-]([Cl])[O+]=C2C=CN1CCCCCCN1C=CC2=[O+][Ru-]([Cl])[O]C2=C1C.Cc1ccc(C(C)C)cc1.Cc1ccc(C(C)C)cc1 | shake flask, ICP-MS | n-octanol/water | aqua complex | -1.36
CCC1=C(CC)C2=[N+]3C1=Cc1c(CC)c(CC)c4[n]1[Ir-3]31([n+]3ccccc3)([n+]3ccccc3)[n]3c(c(CC)c(CC)c3=CC3=[N+]1C(=C4)C(CC)=C3CC)=C2.[Cl-] | ICP-MS | n-octanol/saline |  | 2.83

SMILES | assay | test system | setting | logP
CCCCCCCC[P+](c1ccccc1)(c1ccccc1)c1ccccc1 | shake flask, HPLC | 1-octanol/water |  | 0.22 ± 0.02
CCC1=C(CC)C2=[N+]3C1=Cc1c(CC)c(CC)c4[n]1[Ir-3]31([Cl])([C]#[O+])[n]3c(c(CC)c(CC)c3=CC3=[N+]1C(=C4)C(CC)=C3CC)=C2 | ICP-MS | n-octanol/saline |  | 2.38
COCCOCCOCCOCCOCCOCCOCCOCCNC(=O)CCc1ccc(N(c2ccc(CCC(=O)NCCOCCOCCOCCOCCOCCOCCOCCOC)cc2)c2ccc(-c3c4c(c(-c5ccc(N(c6ccc(CCC(=O)NCCOCCOCCOCCOCCOCCOCCOCCOC)cc6)c6ccc(CCC(=O)NCCOCCOCCOCCOCCOCCOCCOCCOC)cc6)cc5)c5nsnc35)N=S=N4)cc2)cc1 | shake flask | n-octanol/water |  | -0.64
O=C(OCc1ccc(F)cc1)N(Cc1cccc(CN2CCCCC2)c1)[c-]1cccc1.[Fe+2].c1cc[cH-]c1 | RP-TLC | MOPS/acetonitrile | pH 7.4 | 6.05 ± 0.07
COc1cccc(O)c1C=NCCCN(C)CCN(C)CCCN=Cc1c(O)cccc1OC |  | 1-octanol/saline | pH 7.4, 67Ga complex | 2.56 ± 0.02
CC[P+](c1ccc(C)cc1)(c1ccc(C)cc1)c1ccc(C)cc1 | shake flask, HPLC | 1-octanol/water |  | -0.5 ± 0.05
Cc1c(C)c(C)[c-](C)c1C.O=C1c2cccc[n+]2[Ir]([Cl])[N]1CCCCCCCCCC[P+](c1ccccc1)(c1ccccc1)c1ccc2ccc3cccc4ccc1c2c34.[Br-] | shake-flask | octanol/PBS |  | 1.21 ± 0.09
N=C(N)NCCC[C@@H]1NC(=O)[C@H](CCCCNC(=O)CC[C@H](NC(=O)CC[C@H](NC(=O)CN2CCN(CC(=O)O)CCN(CC(=O)O)CCN(CC(=O)O)CC2)C(=O)N[C@@H](CCC(=O)NCCCC[C@@H]2NC(=O)[C@@H](Cc3ccccc3)NC(=O)[C@H](CC(=O)O)NC(=O)CNC(=O)[C@H](CCCNC(=N)N)NC2=O)C(=O)NCCCC[C@@H]2NC(=O)[C@@H](Cc3ccccc3)NC(=O)[C@H](CC(=O)O)NC(=O)CNC(=O)[C@H](CCCNC(=N)N)NC2=O)C(=O)NCCCC[C@@H]2NC(=O)[C@@H](Cc3ccccc3)NC(=O)[C@H](CC(=O)O)NC(=O)CNC(=O)[C@H](CCCNC(=N)N)NC2=O)NC(=O)[C@@H](Cc2ccccc2)NC(=O)[C@H](CC(=O)O)NC(=O)CNC1=O [indium-111 labelled] |  | octanol/PBS | pH 7.4, room temperature | -4.15 ± 0.07
CCCCCCCCCC[N]1C(=O)c2cccc[n+]2[Ir]1[Cl].Cc1c(C)c(C)[c-](C)c1C | shake-flask | octanol/PBS |  | 1.47 ± 0.2
CC1=C2[O][Ru-]([Cl])[O+]=C2C=CN1CCCCCCCCCCCCN1C=CC2=[O+][Ru-]([Cl])[O]C2=C1C.Cc1ccc(C(C)C)cc1.Cc1ccc(C(C)C)cc1 | shake flask, ICP-MS | n-octanol/water | aqua complex | -0.56
[Cl-].[Cl-].[Ru+2].c1ccc2nc3c4cccnc4c4ncccc4c3nc2c1.c1ccncc1.c1ccncc1.c1ccncc1.c1ccncc1 |  | n-octanol/water |  | -1.09 ± 0.05
CCCCC[P+](c1ccccc1)(c1ccccc1)c1ccccc1 | shake flask, HPLC | 1-octanol/water |  | -0.84 ± 0.01
Cc1c([O][Ru][Cl])c(=O)ccn1CCCCn1ccc(=O)c([O][Ru][Cl])c1C.Cc1ccc(C(C)C)cc1.Cc1ccc(C(C)C)cc1 | shake flask, ICP-MS | n-octanol/water | aqua complex | -1.33
O=C(N[c-]1cccc1)OCc1ccc(B(O)O)cc1.[Fe+2].c1cc[cH-]c1 | RP-TLC | MOPS/acetonitrile | pH 7.4 | 2.76 ± 0.23
COc1cc(O)c(C=NCCCN(C)CCN(C)CCCN=Cc2c(O)cc(OC)cc2OC)c(OC)c1 |  | 1-octanol/saline | pH 7.4, 67Ga complex | 2.97 ± 0.04
CN1CC[C@H](c2c(O)cc(O)c3c(=O)cc(/C=C/c4c(Cl)cccc4Cl)oc23)[C@H](O)C1 | shake flask | n-octanol/water |  | 1.82 ± 0.14
Cc1ccc(C(C)C)cc1.[C-]#[O+].[C-]#[O+].[C-]#[O+].[Cl-].[Cl-].[Cl-].[Re+].[Ru+2].c1cnc(-c2ncccn2)nc1 | shake flask |  |  | 0.241

A few entries again:
SMILES | assay | test system | setting | logP
C#CCN(C(=O)OCc1ccc(C(=O)N(C)C)cc1)[c-]1cccc1.[Fe+2].c1cc[cH-]c1 | RP-TLC | MOPS/acetonitrile | pH 7.4 | 3.96 ± 0.15
CC[P+](CC)(CC)[Au-][S]c1ccc(SCC(=O)N[C@H]2[C@H](OC(C)=O)O[C@H](COC(C)=O)[C@@H](OC(C)=O)[C@@H]2OC(C)=O)cc1 |  | n-octanol/water |  | -0.36
CC[P+](N=P(c1ccccc1)(c1ccccc1)c1ccccc1)(c1ccccc1)c1ccccc1 | HPLC | octanol/water | 100 µM | 0.51
